Measurements from different studies.
Lines come from different studies, so protocols differ. Numbers after ± are the reported error.

SMILES	assay	system	conditions	how to read	quantity	result
C=CC(=O)Nc1cc(Nc2nccc(-c3cn(C)c4ccccc34)n2)c(OC)cc1N(C)CCN(C)C	storage stability	human plasma	2 h, on ice, MQC level	–	recovery	101%
CCCCOc1ccc([C@H]2CC[C@H](CCC)CC2)c(F)c1F	–	rat, fetus	5000 ng/mL in perfusate, high dose, mixture of 21 LCMs	–	fetal accumulation	1.43 ± 0.77 ng/g
CC(C)C[C@H](NC(=O)CNC(=O)c1cc(Cl)ccc1Cl)B(O)O	refers to: Dizziness	human newly diagnosed multiple myeloma	oral, dose not given, maintenance, grade 3, onset cycle 17 or later	–	treatment-emergent adverse events	0%
Cc1ccc([C@@H]2O[C@H](CO)[C@@H](O)[C@H](O)[C@H]2O)cc1Cc1ccc(-c2ccc(F)cc2)s1	refers to: inorganic phosphorus	Japanese type 2 diabetes patients	400 mg, day 15, 24 h urine collection	reference: baseline	urinary phosphate excretion change	47.3 mg
Cc1ccc(Sc2ccccc2N2CCNCC2)c(C)c1	refers to: Thirst	healthy adult men	oral, 10 mg daily, 12 days	–	participants with TEAE	0%
CCCCCCCCCC(=O)[O-].C[N+](C)(C)CCO	fluorescence probe	water	37 °C	–	critical aggregation concentration	27.31 ± 0.13 mmol/L
CCN1/C(=C/C(C)=O)Sc2ccc(F)cc21	–	cynomolgus monkey	oral, 30 mg/kg, 4 h post-dose	–	QT interval	277 ± 39 ms
CCc1cc(C(=O)NC)c2nccc(N3CCc4c(cc(Cn5ccnc5)cc4-c4cn(C)nc4C(F)(F)F)C3=O)c2c1	–	Sprague Dawley rat	oral, 100 mg/kg once daily, 7 days	reference: vehicle	brain weight change	1.55%
CCc1nc(C(N)=O)c(Nc2ccc(N3CCC(N4CCN(C)CC4)CC3)c(OC)c2)nc1NC1CCOCC1	–	Japanese patients, plasma	oral, 120 mg, cycle 0 day -2, single dose, median	–	AUC(0-24)	2740 ng·h/mL
CNCc1ccc(-c2[nH]c3cc(F)cc4c3c2CCNC4=O)cc1	–	human patients	oral, 600 mg twice daily, grade 3	–	incidence of neutropenia	11.5%
C[C@@]1(O)C[C@]23C[C@H]1CC[C@H]2[C@]1(C)CCC(=O)Nc2c(O)ccc(c2O)C(=O)S[C@H]2CC(=O)[C@@](C)(CCC(=O)Nc4c(O)ccc(c4O)C(=O)S[C@H]3CC1=O)[C@@H]1CC[C@@H]3C[C@]21C[C@@]3(C)O	–	C57BL/6 mice, plasma	intravenous, 10 mg/kg	–	clearance	3 mL/min/kg
CO[C@H]1C[C@@H]2CC[C@@H](C)[C@@](O)(O2)C(=O)C(=O)N2CCCC[C@H]2C(=O)O[C@H]([C@H](C)C[C@@H]2CC[C@@H](O)[C@H](OC)C2)CC(=O)[C@H](C)/C=C(\C)[C@@H](O)[C@@H](OC)C(=O)[C@H](C)C[C@H](C)/C=C/C=C/C=C/1C	–	healthy adult horses	oral, 0.06 mg/kg, 6 h	–	heart rate	35 ± 3.3 beats/min
[18F]c1ccc(-c2ccc3c(c2)[nH]c2ccncc23)cn1	microPET/CT imaging	B6SJL mouse, normal, heart	intravenous, 5 min	–	SUV	0.912 ± 0.278
CC[C@H](C)[C@H](NC(=O)[C@H](CO)NC(=O)[C@H](CCCNC(=N)N)NC(C)=O)C(=O)N[C@H]1CSSC[C@@H](C(=O)N[C@H](C(N)=O)[C@@H](C)O)NC(=O)[C@H](CCCNC(=N)N)NC(=O)[C@H](Cc2c[nH]cn2)NC(=O)[C@H](C)NC(=O)CNC(=O)[C@H](Cc2c[nH]c3ccccc23)NC(=O)[C@H](CC(=O)O)NC(=O)[C@H](CCC(N)=O)NC(=O)[C@H](Cc2c[nH]c3ccccc23)NC(=O)[C@H](C(C)C)NC1=O	isocratic RP-HPLC, C18	32% acetonitrile, phosphate pH 7.4, 1% TFA	25 °C	–	retention factor	0.494 ± 0.013
C[C@@H](N)C1CCN(S(=O)(=O)c2cccc3cnccc23)CC1	–	healthy volunteers, fasted, plasma	oral, 250 mg	–	Vz/F	4940 L
C=CC(=O)NC1CCN(c2ncc3ncnc(Nc4ccc(Oc5ccc6c(c5)ncn6C)c(C)c4)c3n2)CC1	–	healthy male humans	oral, 240 mg	–	AE leading to discontinuation	0%
O=c1c2ccccc2oc2ccccc12	–	tricaprin-tricaprylin mixture	30 °C, tricaprin fraction 1.00	–	solubility	0.0275 mole fraction
